Measured values from different studies.
Parts stem from different laboratories: compare values within a part only.

Series 1
Target: UBE2G1 UBC core domain (UniProt P62253)
Chain of UniProt P62253 (whole entry, looked up): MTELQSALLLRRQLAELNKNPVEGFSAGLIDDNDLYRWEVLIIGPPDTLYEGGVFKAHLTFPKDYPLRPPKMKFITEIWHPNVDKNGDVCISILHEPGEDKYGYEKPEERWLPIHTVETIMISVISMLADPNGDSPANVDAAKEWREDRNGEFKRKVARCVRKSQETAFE
Technique: yeast two-hybrid
Sample: yeast
Notes: mostly zero background
Baseline: not given
Direction: higher = stronger interaction
B1: RNF115 RING domain (UniProt Q9Y4L5); chain TQEQVDMGLECPVCKEDYTVEEEVRQLPCNHFFHSSCIVPWLELHDTCPVCRKSLNGEDSTR
B2: MARCHF2 RING domain (UniProt Q9P0N8); chain RLLSTVIRALDTPSDGPFCRICHEGANGECLLSPCGCTGTLGAVHKSCLEKWLSSSNTSYCELCHTEFAVEKRPRPLTEWL
B3: RNF130 RING domain (UniProt Q86XS8); chain DKETDPDFDHCAVCIESYKQNDVVRILPCKHVFHKSCVDPWLSEHCTCPMCKLNILKALGIV
B4: NHLRC1 RING domain (UniProt Q6VVB1); chain MREAEISLLECKVCFEKFGHRQQRRPRNLSCGHVVCLACVAALAHPRTLALECPFCRRACRGCDTSD
B5: RMND5B RING domain (UniProt Q96G75); chain MKCWYHSVFACPILRQQTSDSNPPIKLICGHVISRDALNKLINGGKLKCPYCPMEQNPADGK
B6: RNF10 RING domain (UniProt Q8N5U6); chain VRICSHEVPSCPICLYPPTAAKITRCGHIFCWACILHYLSLSEKTWSKCPICYSSVHKKDLKS
B7: ARIH1 RING domain (UniProt Q9Y4X5); chain NTRSSAQDMPCQICYLNYPNSYFTGLECGHKFCMQCWSEYLTTKIMEEGMGQTISCPAHGCDILVDDNTVM
B8: TRIM28 RING domain (UniProt Q13263); chain GAEALELLEHCGVCRERLRPEREPRLLPCLHSACSACLGPAAPAAANSSGDGGAAGDGTVVDCPVCKQQCFSKDIVE
B9: TRIM47 RING domain (UniProt Q96LD4); chain MDGSGPFSCPICLEPLREPVTLPCGHNFCLACLGALWPHRGASGAGGPGGAARCPLCQEPFPDGLQLR
| Molecule | lacZ reporter activity |
| --- | --- |
| B1 (RNF115 RING domain) | 0 |
| B2 (MARCHF2 RING domain) | 0 |
| VPADASPDSKCPICLDRFDNVSYLDRCLHKFCFRCVQEWSKNKAECPLCKQPFDSIFHSV (TOPORS RING domain (UniProt Q9NS56)) | 0 |
| B3 (RNF130 RING domain) | 0 |
| B4 (NHLRC1 RING domain) | 0 |
| B5 (RMND5B RING domain) | 0 |
| MEEMEEELKCPVCGSFYREPIILPCSHNLCQACARNILVQTPESESPQSHRAAGSGVSDY (TRIM9 RING domain (UniProt Q9C026)) | 0 |
| B6 (RNF10 RING domain) | 0 |
| B7 (ARIH1 RING domain) | 0 |
| PLRRLQEEKLCKICMDRHIAVVFIPCGHLVTCKQCAEAVDRCPMCSAVIDFKQRVF (BIRC8 RING domain (UniProt Q96P09)) | 0 |
| B8 (TRIM28 RING domain) | 0 |
| B9 (TRIM47 RING domain) | 0 |
| EIKDYKARLTCPCCNMRKKDAVLTKCFHVFCFECVKTRYDTRQRKCPKCNAAFGANDFHR (RNF20 RING domain (UniProt Q5VTR2)) | 0 |
| AAQLLEEKLTCAICLGLYQDPVTLPCGHNFCGACIRDWWDRCGKACPECREPFPDGAELR (TRIM65 RING domain (UniProt Q6PJ69)) | 0 |
| GSEEEEIPFRCFICRQAFQNPVVTKCRHYFCESCALEHFRATPRCYICDQPTGGIFNPA (RNF113B RING domain (UniProt Q8IZP6)) | 0 |

Series 2
Target: Homeobox protein Hox-C11, full length (HOXC11, Homo sapiens, UniProt O43248, residues 1-304)
Chain of UniProt O43248 (whole entry, looked up): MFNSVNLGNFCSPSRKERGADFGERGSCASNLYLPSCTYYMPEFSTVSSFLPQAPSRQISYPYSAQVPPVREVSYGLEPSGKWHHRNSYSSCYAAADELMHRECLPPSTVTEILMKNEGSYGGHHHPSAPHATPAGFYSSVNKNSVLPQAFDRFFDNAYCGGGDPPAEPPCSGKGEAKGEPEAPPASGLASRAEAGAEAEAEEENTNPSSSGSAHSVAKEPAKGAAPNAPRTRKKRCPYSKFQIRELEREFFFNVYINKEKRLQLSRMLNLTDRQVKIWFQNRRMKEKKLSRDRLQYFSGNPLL
Technique: protein-binding microarray
Molecule type: hairpin DNA
Sample: in vitro
Tested at: not given
Notes: whole hairpin DNA, median over replicate spots
Baseline: not given
Direction: higher = stronger binding
| Strand | median fluorescence [a.u.] |
| --- | --- |
| GAGGCCAGGTCGTTAAAGCCTCCTGGCTTTAACGACCTGGCCTCACACTC (5mC at 11 33) | 10600 |
| GAGGCCAGGTCGTTACGGCCTCCTGGCCGTAACGACCTGGCCTCACACTC (5mC at 16) | 10600 |
| GAGGCCAGGTGGTTAAAGCCTCCTGGCTTTAACCACCTGGCCTCACACTC | 9400 |
| GAGGCCAGGTCGTACGAGCCTCCTGGCTCGTACGACCTGGCCTCACACTC (5mC at 15 29) | 10000 |
| GAGGCCAGGTCGTTACAGCCTCCTGGCTGTAACGACCTGGCCTCACACTC | 10900 |
| GAGGCCAAGTCGTAAAAGCCTCCTGGCTTTTACGACTTGGCCTCACACTC | 9700 |
| GAGGCCAGGTCCGAAAAGCCTCCTGGCTTTTCGGACCTGGCCTCACACTC (5mC at 32) | 9070 |
| GAGGCCAGGTCGTACGAGCCTCCTGGCTCGTACGACCTGGCCTCACACTC (5mC at 29) | 11000 |
| GAGGCCGGGTCGTAAAAGCCTCCTGGCTTTTACGACCCGGCCTCACACTC | 11500 |
| GAGGCCAGCTCGTTAAAGCCTCCTGGCTTTAACGAGCTGGCCTCACACTC | 9800 |
| GAGGCCAGGTCCGTAAAGCCTCCTGGCTTTACGGACCTGGCCTCACACTC (5mC at 12) | 9430 |
| GAGGCCAGGTCGATAAAGCCTCCTGGCTTTATCGACCTGGCCTCACACTC | 10100 |
| GAGGCCAGGTCCTTAAAGCCTCCTGGCTTTAAGGACCTGGCCTCACACTC (5mC at 12) | 8060 |
| GAGGCCAGGTCGCAAAAGCCTCCTGGCTTTTGCGACCTGGCCTCACACTC | 10500 |
| GAGGCCAGGTCGCTAAAGCCTCCTGGCTTTAGCGACCTGGCCTCACACTC | 10200 |
| GAGGCCAGGTCGTTATAGCCTCCTGGCTATAACGACCTGGCCTCACACTC | 10200 |

Series 3
Target: Interferon regulatory factor 7, full length, phosphomimetic (IRF7, Homo sapiens, UniProt Q92985, residues 1-503, S101K/S471D/S472D/S475D/S476D/S477D/S483D/S484D/S487D)
Chain of UniProt Q92985 (whole entry, unmodified, looked up): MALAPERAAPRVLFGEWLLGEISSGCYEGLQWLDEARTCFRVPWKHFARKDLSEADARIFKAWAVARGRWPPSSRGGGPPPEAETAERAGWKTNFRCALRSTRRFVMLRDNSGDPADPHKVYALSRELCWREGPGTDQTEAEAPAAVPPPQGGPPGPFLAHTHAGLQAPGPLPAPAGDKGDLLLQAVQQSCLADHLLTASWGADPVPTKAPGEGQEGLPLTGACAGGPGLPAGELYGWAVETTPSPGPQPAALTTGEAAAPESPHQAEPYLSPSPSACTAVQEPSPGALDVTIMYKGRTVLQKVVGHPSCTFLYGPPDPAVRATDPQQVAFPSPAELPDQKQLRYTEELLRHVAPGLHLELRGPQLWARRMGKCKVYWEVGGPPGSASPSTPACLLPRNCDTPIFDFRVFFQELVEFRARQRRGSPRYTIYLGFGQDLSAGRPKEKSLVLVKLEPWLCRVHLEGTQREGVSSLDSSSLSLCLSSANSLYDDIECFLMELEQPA
Technique: protein-binding microarray
Molecule type: double-stranded DNA, one strand shown
Sample: in vitro
Tested at: 250 nM
Notes: 60-bp whole probe
With: salmon DNA 0.4 mg/ml
Baseline: random background probes
Direction: higher = stronger binding
Constant ends, left off below: GCCTAGCAC … GTCTTGATTCGCTTGACGCTGCTG
| Strand | log fluorescence [z-score] |
| --- | --- |
| GACGATATCCGTCTCGAGACGTGCTAG | 0.106 |
| GACTGTTTCCTACTGCTGACGTGCTAG | 1.63 |
| TTAGGAATCCTTTTCCTTTAGTGCTAG | 1.2 |
| TCTCTTTCCTTCTTGATGCAGTGCTAG | 2.2 |
| TTAGGTCTCAGTATCGATTAGTGCTAG | 1.12 |
| TCAGCTTTGCAGATAAAACTGTGCTAG | -0.332 |
| TCTCTTTTGGCTTTCCTTTAGTGCTAG | 1.36 |
| GACGATATCAGTCACGAGACGTGCTAG | 0.0517 |
| TTAGGACTCGGTTTCGGTTAGTGCTAG | 11.2 |
| ATAGGACTGCTTCTCCTTTAGTGCTAG | 0.663 |
| TTAGGGCTGCTACTGCTTTAGTGCTAG | -1.09 |
| TTAGAACAGAGACTGGATTAGTGCTAG | -0.0497 |
| TCAAGTGTGTGTCTGATACTGTGCTAG | -0.629 |
| GACGGACTGGGGACAGGGGACGTGCTA | -0.209 |
| GAGGGTATCGACTTTCGGGACGTGCTA | 0.453 |
| TTATGACTGGGGTTTCGGTTAGTGCTA | 5.43 |
| GACGGTTTCGAATATCGGGACGTGCTA | 4.9 |
| TTAGATTCCAGTTACGATTAGTGCTAG | 4.22 |
| TTTGAACTGGGGACTGGATTAGTGCTA | -0.514 |
| TCAGATTTTGTCCTCCCACTGTGCTAG | 0.133 |
| CCCCCAATCTCTCTTCACATGTGCTAG | 0.0345 |
| TTACGTTTCGGACTGGGTTAGTGCTAG | 1.84 |
| AGTGTTTGCCCTATTTAAAAGTGCTAG | 1.43 |
| GTCGATCTCAGTTTCGAGACGTGCTAG | 4.53 |
| TTAGGTTTCGGCTTCGGTTAGTGCTAG | 7.07 |

Series 4
Target: RNA binding protein fox-1 homolog 2, RRM domain, GST-SBP tag (RBFOX2, Homo sapiens, UniProt O43251-10, residues 100-194)
Technique: RNA Bind-n-Seq
Molecule type: RNA
Sample: in vitro
Tested at: 365 nM
Notes: natural RNA segment, single round, ends assumed
Baseline: no-protein control
Direction: higher = stronger binding
Constant ends, left off below: GGGAGUUCUACAGUCCGACGAUC … UGGAAUUCUCGGGUGCCAA
Residues (chain): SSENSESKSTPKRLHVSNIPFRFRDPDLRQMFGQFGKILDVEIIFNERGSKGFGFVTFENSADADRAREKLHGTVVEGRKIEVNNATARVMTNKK
| Strand | RBNS enrichment (R) |
| --- | --- |
| CUCUAAAGUUAUAGAAAGAAUGAUGGUGGUAGUGGAGAGUAAGCCUCUUUGGGACCCUGCUUAGAGUCAAGGGUACCAAUGAGAAGGGCUAGGACAAGGAAUGCUUCUUG | 2.32 |
| ACUCCGAGUGUGUGCCAUCCAUUUGUUAAGUAACUGGCCUUUAGCAGAUCUGUUUCAAAAACAAAUACAAAAAUGAGAAUGAAAAGUUUGCUUAAGACUAAGUCCAGUGU | 0.41 |
| GUGCAGCGCCUUUGAGGCUCUGGGUGUAAGACAGUUUCCUUCCCUGACUCUCGUGCACAGACAGCAUGCAGCAUACAGACUGAAACUGUGCUCUGCCGAGUAGAAAGUAG | 1.76 |
| GAGUUCUGCAGUAUAGAACAAUUACUUGUAUGAAAUUAUACCUUUGAAUUUUAGAAUGUCAUGUGUUCUUUUAAAAAAAUUAGCUCCCCAUCCUCCCUCCUCACUCCCUC | 1.12 |
| GCACAGUUCAAAGUUCUGGCUUCUGGACUCUGCAGUCCAGGUCUCCCUUCUCCCACUUGCCUACCCUCAAUGCCACACUGUUUUUGAAGUGGCCCAUAACUUGAAGGAAA | 0.436 |
| CAAUAUAAAAAACAUUUUAAAUUUCCUAGAAAUGUCUUCAGGGUAAUGCCAAUUUAAGAUCUCUCUUAACUUGUGGCCAAGAAAUUCUAGAUUUUCCAGCUGACUUUGGU | 0.336 |
| CCUUUGUGAGGAGCCGGGCGCAGCCUGCUCGCCUGUGGUGAAACCCAUGGGGUGUCACACCCCACACCUCAUGCUCGAGAGGCCCGACCCAGGGGCAGAAAACGGGGCUU | 0.474 |
| GUGAGAGCAGAACCCCCAUUCCCCAGCCUCUGCUGGUAGCAUGUCGCAGUUUCCAUGUGUUUCAGGAUCUUCGGGCUGUCGUUAGACAGGUUAAUGAAGAACACUUCUCA | 1.15 |
| CUCAGACUGUCCUGCAUGAAGGCAGGAGAGCUGAACUCUCUCUGGUCCUUGUCUUUCCCAAUCUUUGUCCCUCCAUCCCCAGUGGCAUCAGGAGAGGAGUAGGUAAUGUU | 0.929 |
| UUCCCGUGACAGGAAACGACCUUGUGUUCUGAGGAGAGCGUGAAGGCUGUGCCUGCCCUGCCAGUGCAGGGAGCUGUCCCGCACUUGAGCAGUGUCAGAGAUUCUUGCUU | 0.268 |
| GCCGUUCAUCUUGUGUGUUUGUGACUUACUUUUGUAGCCUGUCAUCUUCUGGGCCCAGAGUCAGGGUCUCUGUGUCCCCUGUGCCUCCUGGGGACUGCUGCUGUCCUGCC | 0.537 |
| AGAAGAUCUUACAGGAGUUCUUUGCUUGAAUCCGUUCUAACACCCGCGGCAGCUGCACGCGCUCACAGAAGGUGGAGGUUACUUGCCCAGGUACAGACGACCUCGGGGCA | 0.768 |
